Measurements collected from several papers.
A part holds a random share of what one study measured. Positions count from the first letter of the parent shown.

Block 1 — method: RNA Bind-n-Seq; form: RNA; matrix: in vitro; tested at: 1 µM; setting: whole 134-nt RNA, ends assumed; with: 150 mM KCl; baseline: input library; reading: higher = stronger binding
Target: Ras GTPase-activating protein-binding protein 1, C-terminal RGG region (G3BP1, Homo sapiens, UniProt Q13283)
Chain of UniProt Q13283 (whole entry, looked up): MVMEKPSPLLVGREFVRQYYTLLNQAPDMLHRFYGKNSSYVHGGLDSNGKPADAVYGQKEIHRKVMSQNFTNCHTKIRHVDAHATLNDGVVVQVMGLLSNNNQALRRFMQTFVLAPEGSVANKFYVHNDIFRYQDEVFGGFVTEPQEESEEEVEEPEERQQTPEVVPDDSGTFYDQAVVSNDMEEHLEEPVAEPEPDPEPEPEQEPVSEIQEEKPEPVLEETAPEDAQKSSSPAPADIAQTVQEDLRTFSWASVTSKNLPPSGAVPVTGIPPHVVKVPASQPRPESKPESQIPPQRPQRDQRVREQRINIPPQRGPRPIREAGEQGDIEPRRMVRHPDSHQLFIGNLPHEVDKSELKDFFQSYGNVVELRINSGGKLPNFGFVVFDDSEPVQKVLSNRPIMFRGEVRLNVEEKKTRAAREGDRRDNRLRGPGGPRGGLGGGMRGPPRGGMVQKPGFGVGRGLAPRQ
With `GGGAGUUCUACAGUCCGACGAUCAGUCCUGUGCUACACAUCGUAUGUACCGAAUCGGGGCCCCGGGGCCCCGGCCCCGGGAAAGUAUUAUGUUACGCCGUUCGGAUCUGCACUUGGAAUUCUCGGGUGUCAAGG` the log2 enrichment was -2.44.
For `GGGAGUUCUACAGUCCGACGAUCACCAUGCAGGUGGGUAUCUUUGGGAAGUGGGGCAAGGGGGGGAUAGGGAGGGGGGUAACACUUUGGGAACAGGUGGUCCCAGGUCGUUUCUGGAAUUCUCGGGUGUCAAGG`, the log2 enrichment was -1.51.
The log2 enrichment of `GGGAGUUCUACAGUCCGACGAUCUCCUGUGCUACACAUCGUAUGUACCGAAUCAAACCCCCCCAAAUUUUUUUAAAUUUAAAAAAGUAUUAUGUUACGCCGUUCGGAUCUGCAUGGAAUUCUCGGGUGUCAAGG` is reported as -0.413.
For `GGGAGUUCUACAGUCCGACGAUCUAACUUUAGAGGAGGUUCUGAUGGAUAUGGCAGUGGACGUGGAUUUGGGGAUGGCUAUAAUGGGUAUGGAGGAGGACCUGGAGGUGGCAAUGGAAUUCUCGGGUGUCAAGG`, the log2 enrichment was -1.37.
The log2 enrichment of `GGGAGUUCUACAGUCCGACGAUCAAGUCCUGUGCUACACAUCGUAUGUACCGAAUCGGUUUUUGGUUUUUGGGUUUUUGGAAAGUAUUAUGUUACGCCGUUCGGAUCUGCACUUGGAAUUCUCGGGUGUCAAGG` is reported as -1.41.
With `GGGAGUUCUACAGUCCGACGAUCUCAAGUCCUGUGCUACACAUCGUAUGUACCGAAUCGGGCCCGGGCCCGGCCCGGGAAAGUAUUAUGUUACGCCGUUCGGAUCUGCACUUCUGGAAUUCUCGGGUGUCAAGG` the log2 enrichment was -2.
`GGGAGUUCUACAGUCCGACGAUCACCAUGCAGGUGGGCAUCUUUGGGAAGUGGGGCAAGGGGGGGAUAGGGAGGGGGGUAACACUUUGGGAAGAGGUGGUCCCAGGUCGUUUCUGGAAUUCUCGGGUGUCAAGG` gave a log2 enrichment of 2.11.
For `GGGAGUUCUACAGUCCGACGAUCCAAGUCCUGUGCUACACAUCGUAUGUACCGAAUCGGUUUUUUUGGUUUUUGGAGGAAAGUAUUAUGUUACGCCGUUCGGAUCUGCACUUCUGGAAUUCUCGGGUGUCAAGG`, the log2 enrichment was -1.62.
`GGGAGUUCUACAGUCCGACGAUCGUCCUGUGCUACACAUCGUAUGUACCGAAUCGGUUUUUUUGGUUUUUGGUUUUUUUGGAAAGUAUUAUGUUACGCCGUUCGGAUCUGCACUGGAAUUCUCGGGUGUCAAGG` gave a log2 enrichment of -1.57.
`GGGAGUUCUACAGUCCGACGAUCUCAAGUCCUGUGCUACACAUCGUAUGUACCGAAUCGGCCCGGGCCCGGGCCCGGGAAAGUAUUAUGUUACGCCGUUCGGAUCUGCACUUCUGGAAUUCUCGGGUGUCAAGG` has a log2 enrichment of -1.97.

Block 2 — target: CCNF, cyclin fold, Cln2 fusion (human); method: yeast growth competition, sequencing; matrix: yeast; setting: strong parent motif; baseline: not given; reading: higher = stronger binding
Starting sequence: KIF20B docking peptide (human); KRAKRKLYTSEIS; partner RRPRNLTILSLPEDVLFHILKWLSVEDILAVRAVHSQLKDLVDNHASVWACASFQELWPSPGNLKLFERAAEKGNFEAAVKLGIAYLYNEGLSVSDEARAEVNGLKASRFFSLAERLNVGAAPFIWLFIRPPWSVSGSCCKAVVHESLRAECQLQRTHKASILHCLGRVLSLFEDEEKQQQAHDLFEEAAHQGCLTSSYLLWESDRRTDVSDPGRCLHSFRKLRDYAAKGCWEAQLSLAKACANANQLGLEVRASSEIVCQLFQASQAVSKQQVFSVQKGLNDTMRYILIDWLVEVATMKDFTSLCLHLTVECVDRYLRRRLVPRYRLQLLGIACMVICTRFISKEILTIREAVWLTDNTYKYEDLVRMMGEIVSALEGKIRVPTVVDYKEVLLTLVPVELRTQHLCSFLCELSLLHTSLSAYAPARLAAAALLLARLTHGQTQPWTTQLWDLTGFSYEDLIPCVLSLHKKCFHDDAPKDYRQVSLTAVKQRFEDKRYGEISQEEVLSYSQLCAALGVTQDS
For `KRAKRKLYTAEIS [S10A]`, “normalised enrichment score” read 1.05.
`KRAKRKLYTSAIS [E11A]`: “normalised enrichment score” 1.3.
`KRAKRKLYTSEIA [S13A]`: “normalised enrichment score” 1.65.
Under “normalised enrichment score”, `KRAKRKLYTSEAS [I12A]` is recorded as 1.56.
Under “normalised enrichment score”, `KRAKRKAYTSEIS [L7A]` is recorded as 0.79.
For `KRAKAKLYTSEIS [R5A]`, “normalised enrichment score” read -0.213.

Block 3 — method: protein-binding microarray; form: double-stranded DNA, one strand shown; matrix: in vitro; tested at: 2200 nM top; setting: 60-bp whole probe; with: salmon DNA 0.4 mg/ml; baseline: random background probes; reading: higher = stronger binding; all sequences stand within: GCCTAGCAC … GTCTTGATTCGCTTGACGCTGCTG
Target: Interferon regulatory factor 7, full length, phosphomimetic (IRF7, Homo sapiens, UniProt Q92985, residues 1-503, S471D/S472D/S475D/S476D/S477D/S483D/S484D/S487D)
Residues (chain): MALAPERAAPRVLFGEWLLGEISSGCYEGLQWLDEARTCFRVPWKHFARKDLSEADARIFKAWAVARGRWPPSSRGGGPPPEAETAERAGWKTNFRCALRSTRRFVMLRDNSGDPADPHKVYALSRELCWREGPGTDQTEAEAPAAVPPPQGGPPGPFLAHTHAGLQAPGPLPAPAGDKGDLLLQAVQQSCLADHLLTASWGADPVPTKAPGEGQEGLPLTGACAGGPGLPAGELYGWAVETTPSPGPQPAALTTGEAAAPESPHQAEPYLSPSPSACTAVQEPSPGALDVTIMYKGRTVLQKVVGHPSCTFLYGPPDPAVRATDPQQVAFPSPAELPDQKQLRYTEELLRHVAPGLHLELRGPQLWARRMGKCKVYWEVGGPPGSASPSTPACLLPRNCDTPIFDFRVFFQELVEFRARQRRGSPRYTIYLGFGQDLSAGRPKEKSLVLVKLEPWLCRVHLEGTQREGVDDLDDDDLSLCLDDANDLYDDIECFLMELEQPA
For `TTAGATATCCTACTGCTTTAGTGCTAG`, “fitted relative affinity” read 0.615 z-score.
Under “fitted relative affinity”, `TCATACATTTATATCTTACTGTGCTAG` is recorded as 1.04 z-score.
For `TCATTTTACTTTCTATCACTGTGCTAG`, “fitted relative affinity” read 4.16 z-score.
Under “fitted relative affinity”, `TTAGGTTTCAACTTTCGGTTAGTGCTA` is recorded as 7.64 z-score.
`TCATTTTTTTTTTACTTACTGTGCTAG`: “fitted relative affinity” 2.38 z-score.
`TCATACATCTATGTAGAACTGTGCTAG` — result for “fitted relative affinity”: 0.715 z-score.
`GACGTTTCCCTTTTCCTGACGTGCTAG`: “fitted relative affinity” 4.45 z-score.
Under “fitted relative affinity”, `TTAGGTTTCGGGTATCGGTAAGTGCTA` is recorded as 5.98 z-score.
For `TATGGTTTTTTTTTAATTGAGTGCTAG`, “fitted relative affinity” read 1.1 z-score.
Under “fitted relative affinity”, `GACGGTCTCAGTATCGAGACGTGCTAG` is recorded as -0.146 z-score.

Block 4 — method: DHFR PCA, deep sequencing; matrix: yeast; with: (+)-ABA 0.39 µM; baseline: wild-type fitted maximum; reading: higher = stronger binding
Target: ABI1, truncated, D143A, DHFR fusion (Arabidopsis thaliana)
Setting: methotrexate growth selection, single substitutions
Starting sequence: PYL1, truncated, DHFR fusion (Arabidopsis thaliana); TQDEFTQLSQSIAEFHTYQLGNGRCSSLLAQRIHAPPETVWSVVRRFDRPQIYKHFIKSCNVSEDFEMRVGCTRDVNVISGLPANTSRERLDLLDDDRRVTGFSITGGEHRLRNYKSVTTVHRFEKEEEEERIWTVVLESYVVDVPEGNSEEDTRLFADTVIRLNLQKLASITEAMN
`K116C` — result for “relative binding score”: -2.94%.
For `G102T`, “relative binding score” read -7.44%.
Under “relative binding score”, `Y141D` is recorded as 1.97%.
Under “relative binding score”, `E147Y` is recorded as 24.3%.
`C25F` — result for “relative binding score”: -14.1%.
For `E152A`, “relative binding score” read 33%.
`R123Y`: “relative binding score” 2.97%.
For `V70H`, “relative binding score” read 0.56%.
`D92Q` — result for “relative binding score”: -10.9%.
`D75H` — result for “relative binding score”: 44.7%.
For `S87C`, “relative binding score” read 26.8%.
`S87T`: “relative binding score” 37.2%.

Block 5 — target: CREB3L2, bZIP domain (human); method: DHFR protein complementation; matrix: yeast; baseline: wild-type JUN-FOS pair; reading: higher = stronger binding
Setting: single substitutions, most at no-binding floor
Starting sequence: JUN, bZIP domain (human); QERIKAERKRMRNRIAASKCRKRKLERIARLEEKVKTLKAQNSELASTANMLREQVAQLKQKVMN; partner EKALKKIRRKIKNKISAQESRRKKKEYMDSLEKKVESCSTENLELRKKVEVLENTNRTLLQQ
For `A40T`, the binding fitness was -1.48 natural log.
For `A46M`, the binding fitness was -1.46 natural log.
The binding fitness of `E33N` is reported as -1.49 natural log.
`R53T` has a binding fitness of -1.47 natural log.
For `L38S`, the binding fitness was -1.54 natural log.
With `R53N` the binding fitness was -1.36 natural log.
For `A29N`, the binding fitness was -1.5 natural log.
`V56R` has a binding fitness of -1.45 natural log.
`E32W` has a binding fitness of -1.42 natural log.
`E44D` has a binding fitness of -1.5 natural log.
For `S43W`, the binding fitness was -1.43 natural log.
The binding fitness of `A29M` is reported as -1.41 natural log.

Some of these lines once more (block 4):
`R123Y`: “relative binding score” 2.97%.
For `V70H`, “relative binding score” read 0.56%.
`D92Q` — result for “relative binding score”: -10.9%.
`D75H` — result for “relative binding score”: 44.7%.
For `S87C`, “relative binding score” read 26.8%.
`S87T`: “relative binding score” 37.2%.
